# Experimental data gathered from unrelated publications.
# A part holds a random share of what one study measured.

# Series 1 — technique: competition protein-binding microarray; form: double-stranded DNA, one strand shown; matrix: in vitro; tested at: 2 µM; added: Pho4 competitor, 0.05 µM; reading: higher = stronger binding; constant ends, left off below: … GTCTTGATTCGCTTGACGCTGCTG
# Target: Centromere-binding protein 1, full length, His-tagged (CBF1, Saccharomyces cerevisiae, UniProt P17106, residues 1-351)
# Chain of UniProt P17106 (whole entry, looked up): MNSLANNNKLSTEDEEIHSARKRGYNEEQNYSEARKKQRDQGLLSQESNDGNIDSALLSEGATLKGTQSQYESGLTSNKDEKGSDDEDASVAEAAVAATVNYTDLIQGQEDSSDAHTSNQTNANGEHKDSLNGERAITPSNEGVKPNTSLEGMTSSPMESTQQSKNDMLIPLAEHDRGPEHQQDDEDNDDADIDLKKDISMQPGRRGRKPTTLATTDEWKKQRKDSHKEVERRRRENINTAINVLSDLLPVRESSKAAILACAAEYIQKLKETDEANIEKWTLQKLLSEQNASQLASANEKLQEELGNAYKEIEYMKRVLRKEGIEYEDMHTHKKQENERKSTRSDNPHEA
# Notes: whole 60-bp probe, lowest competitor level
Sequence,fluorescence intensity [a.u.]
GTCTTGTCTCATTGTGGCGTGGGTGTCCCCACTTCA,88.3
CTCTATCTTGTACGCAACGTGTGGAGCTTTATTCTA,83.8
GGACCAGCCCGGACCCATGTGCTTCCAAGTGGCCAG,73.8
CTTTCCCGATCTTGTGAAGTGGGTGTAGCACATTTG,86.4
CTTGCATGGGTGGTGCCCGTGGAGGACGCTCCTAGT,62.6
TCTGAACTAAAAAAAGGCGTGCCAGATACTATATAT,131
TGTGGCTACGCTGGTCACGTGTTAGCAGAAGTCTTA,11600
CGGGGTTAAGTTTGATCTGTGGGTGGCTTGCAGCAG,72.2
TGCGCAACAACTTGTGCTGTGGGTGTATGTCTAGAA,66.3

# Series 2 — technique: protein-binding microarray; form: double-stranded DNA, one strand shown; matrix: in vitro; tested at: 940 nM top; notes: 60-bp whole probe; added: salmon DNA 0.4 mg/ml; relative to: random background probes; reading: higher = stronger binding; constant ends, left off below: GCCTAGCAC … GTCTTGATTCGCTTGACGCTGCTG
# Target: Interferon regulatory factor 5, full length, phosphomimetic (IRF5, Homo sapiens, UniProt Q13568-2, residues 1-514, S451D/S453D/S456D/S462D)
Sequence,fitted relative affinity [z-score]
GGGATAAGGACAGACACCATGTGCTAG,-0.19
GACGGACTGGGGTTTCGGGATGTGCTA,2.08
GACGAACTTAGTATCGAGACGTGCTAG,2.53
GACGAGATCAGTCTCGAGACGTGCTAG,1.53
TTAGGTATCGGGTTGCGGTTAGTGCTA,6.42
TTTGGACTGGGTTTCGGTTAGTGCTAG,7.2
GGATGTTGCAAATATTGCTAGGTGCTA,-0.152
GACGGGATCCTTATCCTGACGTGCTAG,-0.456
TTAGGTCGCCTTATCCTTTAGTGCTAG,0.109
TTAGAACTGGGGACTGGATTAGTGCTA,0.0257

# Series 3 — technique: universal PBM; form: double-stranded DNA, one strand shown; matrix: in vitro; tested at: not given; reading: higher = stronger binding
# Target: Sal-like protein 4, full length isoform B (SALL4, Homo sapiens, UniProt Q9UJQ4-2, residues 1-616)
# Notes: 8-mer, flanks averaged, mean of replicates
Sequence,E-score
AAACCCGC,-0.155
ATAGGAAG,0.158
ATCCGTTC,-0.0385
ACTTTGTG,0.0997
GAGGCGTA,0.0493
GGGGCTAA,-0.172
CCTTCCGA,-0.0181
CAAGCCGA,-0.173
CCTGCGCC,-0.237
GCACGACA,-0.245
ACTGGAAG,-0.146
CAATCCCC,0.0623

# Single results of other studies
Molecule,target,test,test system,setting,scale,quantity,value
"PhoQ, residues 284 288 289 292 302 303 NLAAMI","PhoP, residues 12 14 15 18 19 NQFFI (Escherichia coli, UniProt P23836)","Sort-seq, item: YFP reporter",E. coli,"PhoQ-PhoP variant library, added: 10 µM Mg2+","relative to: high Mg2+ state, higher = stronger signaling",fold induction,17.4

# A few entries again (series 3):
Sequence,E-score
GCACGACA,-0.245
ACTGGAAG,-0.146
CAATCCCC,0.0623
